Published values pooled from the literature.
Numbered parts are unrelated; each lists some results of a single study. Changes are numbered by the printed parent chain.

Series 1
Target: Hepatocyte nuclear factor 3-beta, forkhead domain (FOXA2, Homo sapiens, UniProt Q9Y261, residues 142-269)
Method: protein-binding microarray
Molecule type: double-stranded DNA, one strand shown
Sample: in vitro
Tested at: not given
Notes: k-mer, scored over probes, only values ≥0.25
Direction: higher = stronger binding
Endpoint: E-score
Residues (chain): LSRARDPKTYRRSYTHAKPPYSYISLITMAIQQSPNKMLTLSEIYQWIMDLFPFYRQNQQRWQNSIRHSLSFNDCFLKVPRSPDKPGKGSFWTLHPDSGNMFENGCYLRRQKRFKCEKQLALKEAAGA
CCATATTA: 0.271
TAATATCA: 0.305
AGTATACA: 0.316
AATACACA: 0.349
ACACATAC: 0.318
ATATTATA: 0.324
AACCCATA: 0.357
ACATTTAT: 0.269
GAATAGCA: 0.255
GTAAAGAA: 0.266
AATACACT: 0.368
ATTCATAC: 0.264
TAGTTATA: 0.316
GTAAATAA: 0.363
AATACAAC: 0.309
ATCATGTA: 0.256
GTACATTA: 0.295
ACGCATAA: 0.279
AATCATTG: 0.255
ACTACCAT: 0.287
CATAACAA: 0.35
CTATTCAA: 0.348
AACACAAA: 0.281
AAACACTA: 0.272

Series 2
Target: CCNB2, cyclin fold, Cln2 fusion (human)
Method: yeast growth competition, sequencing
Sample: yeast
Notes: weak parent motif
Relative to: not given
Direction: higher = stronger binding
Endpoint: normalised enrichment score
Starting sequence: MASTL docking peptide (human); PMIAKNLMCELDE; partner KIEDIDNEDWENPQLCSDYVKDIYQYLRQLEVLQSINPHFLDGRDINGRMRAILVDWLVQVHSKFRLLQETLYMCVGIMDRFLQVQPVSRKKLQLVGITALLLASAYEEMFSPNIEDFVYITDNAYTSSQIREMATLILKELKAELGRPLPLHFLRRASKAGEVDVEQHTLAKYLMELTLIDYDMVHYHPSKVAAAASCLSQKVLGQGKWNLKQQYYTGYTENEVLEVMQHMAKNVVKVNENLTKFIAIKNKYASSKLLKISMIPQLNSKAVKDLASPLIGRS
M2Q: 0.949
I3Y: 0.288
I3G: 0.183
N6S: 0.134
A4Q: 0.173
M2S: 1.58
C9A: 1.6
L11W: 0.718
A4P: 0.431
D12R: 0.171
E10Q: 0.587
C9K: 0.955
L7V: -0.0786
K5R: 1.55
M8F: 0.749
A4Y: -0.244
I3S: -0.123
E10M: 0.341
I3P: 0.367
M2Y: 0.55
M2L: 0.548
L11H: 0.168
A4G: -0.081
M8V: 0.403
I3F: -0.16

Series 3
Target: Histone acetyltransferase KAT6A, winged helix 1, GST fusion (KAT6A, Homo sapiens, UniProt Q92794, residues 1-85)
Method: protein binding microarray
Molecule type: double-stranded DNA, one strand shown
Sample: in vitro
Tested at: not given
Notes: 8-mer, flanks averaged, mean of 2 arrays, mostly near background
Relative to: not given
Direction: higher = stronger binding
Endpoint: E-score
Target sequence (chain): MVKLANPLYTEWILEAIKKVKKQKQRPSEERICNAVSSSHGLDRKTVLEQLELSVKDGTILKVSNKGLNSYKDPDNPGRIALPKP
AATGAGGA: -0.24
CCTTCGCA: -0.0712
AATCAACA: -0.174
GCAGCTGA: 0.0215
ACTCGTCG: -0.12
CAATGTTA: -0.0822
CGGACCTA: 0.0992
CACATTCC: -0.0299
CCCACGTC: -0.1
ATTTGTCC: -0.182
GTGCTCTA: -0.0713
CATGATTC: -0.105
GCAATCTA: -0.106
TAACTGTA: -0.143
GAGCCGCC: 0.363
AATTGTGG: -0.235
GTTGTTGA: -0.126
CCAAAGCA: -0.108
CGAGCATC: -0.16
GTCCTCCA: 0.0451
ATGTAATA: 0.144
AGCAAGGA: -0.219
GGAATGAC: -0.0302
CGCAAGGC: 0.0668
AACCGCCC: 0.169

Series 4
Target: Ras GTPase-activating protein-binding protein 1, full length (G3BP1, Homo sapiens, UniProt Q13283)
Chain of UniProt Q13283 (whole entry, looked up): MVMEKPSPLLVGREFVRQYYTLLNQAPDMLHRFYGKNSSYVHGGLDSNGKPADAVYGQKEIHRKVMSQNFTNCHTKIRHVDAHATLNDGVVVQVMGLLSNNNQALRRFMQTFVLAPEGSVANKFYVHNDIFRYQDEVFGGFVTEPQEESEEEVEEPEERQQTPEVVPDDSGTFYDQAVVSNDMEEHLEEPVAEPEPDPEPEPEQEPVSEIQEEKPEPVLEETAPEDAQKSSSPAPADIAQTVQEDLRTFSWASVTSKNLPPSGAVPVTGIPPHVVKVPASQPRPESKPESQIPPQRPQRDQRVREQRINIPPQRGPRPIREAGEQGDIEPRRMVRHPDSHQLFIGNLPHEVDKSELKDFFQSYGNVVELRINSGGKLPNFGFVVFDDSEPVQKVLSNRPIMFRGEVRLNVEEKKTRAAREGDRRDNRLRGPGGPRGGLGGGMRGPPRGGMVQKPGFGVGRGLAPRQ
Method: RNA Bind-n-Seq
Molecule type: RNA
Sample: in vitro
Tested at: 200 nM
Notes: whole 134-nt RNA, ends assumed
With: 150 mM LiCl
Relative to: input library
Direction: higher = stronger binding
Endpoint: log2 enrichment
All molecules: 7-deaza-guanosine replaces G
Shared flanks, not repeated: GGGAGUUCUACAGUCCGACGAUC … UGGAAUUCUCGGGUGUCAAGG
AGUCCUGUGCUACACAUCGUAUGUACCGAAUCGGUUUUUUUGGAAAAAAAGGAAAGGAAAGUAUUAUGUUACGCCGUUCGGAUCUGCACU: -2.92
CUGUGCUACACAUCGUAUGUACCGAAUCGGGGAAAAAAAGGGGAAAAAAAGGAAAAAAAGGAAAGUAUUAUGUUACGCCGUUCGGAUCUG: 0.165
GUCCUGUGCUACACAUCGUAUGUACCGAAUCGGGGUUUUUUUGGGGAAAGGGGUGGGGAAAGUAUUAUGUUACGCCGUUCGGAUCUGCAC: -1.18
CACAGACAACACGCACCCACACAGACACAGAGGGAAGUGGUUGGGAUGGGGACAGGGUGCACAGCAGGGCGGGGUAGGACCCCAGCCCCU: -1.5
GUGCUACACAUCGUAUGUACCGAAUCGGGGAAAAAAAGGGGUUUUUUUGGGGAAAAAAAGGGGAAAGUAUUAUGUUACGCCGUUCGGAUC: -1.1
UCCUGUGCUACACAUCGUAUGUACCGAAUCGGAAAAAAGGGAAAAAAGGGAAAAAAGGGGAAAGUAUUAUGUUACGCCGUUCGGAUCUGC: -0.472
CAAGUCCUGUGCUACACAUCGUAUGUACCGAAUCGGGUGGGAAAGGGAAAAAGGGAAAGUAUUAUGUUACGCCGUUCGGAUCUGCACUUC: -0.259
AAGUCCUGUGCUACACAUCGUAUGUACCGAAUCGGGGUGGGGUUUGGGGAAAGGGGAAAGUAUUAUGUUACGCCGUUCGGAUCUGCACUU: -0.483

For quick reference, copied from above (series 2):
M2L: 0.548
M2Y: 0.55
A4Y: -0.244
A4Q: 0.173
N6S: 0.134
C9A: 1.6
K5R: 1.55
I3P: 0.367
I3S: -0.123
C9K: 0.955
I3G: 0.183
